# Published values collected from several papers.
# Each line is one published result; not all experiments were run side by side. ± gives the spread as reported. No end group written: not given here.
# Kelch domain-containing protein 2: Kelch domain-containing protein 2 (UniProt Q9Y2U9)
# Chain of UniProt Q9Y2U9 (whole entry, looked up): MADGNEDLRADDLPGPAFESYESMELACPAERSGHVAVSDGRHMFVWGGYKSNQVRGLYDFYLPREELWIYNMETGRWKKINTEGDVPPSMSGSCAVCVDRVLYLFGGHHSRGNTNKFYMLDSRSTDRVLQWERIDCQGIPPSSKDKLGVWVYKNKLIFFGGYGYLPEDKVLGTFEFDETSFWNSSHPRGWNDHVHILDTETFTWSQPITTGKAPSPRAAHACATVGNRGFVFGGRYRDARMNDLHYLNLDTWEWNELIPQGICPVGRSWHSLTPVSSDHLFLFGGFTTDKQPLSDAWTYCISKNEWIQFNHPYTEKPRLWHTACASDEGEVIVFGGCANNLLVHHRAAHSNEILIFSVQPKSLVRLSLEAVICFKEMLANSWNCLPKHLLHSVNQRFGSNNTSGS
# YAP1 WW2 domain: Transcriptional coactivator YAP1, WW2 domain (YAP1, Homo sapiens, UniProt P46937)
# KCNT1: Potassium channel subfamily T member 1 (KCNT1, Homo sapiens, UniProt Q5JUK3)
# Chain of UniProt Q5JUK3 (whole entry, looked up): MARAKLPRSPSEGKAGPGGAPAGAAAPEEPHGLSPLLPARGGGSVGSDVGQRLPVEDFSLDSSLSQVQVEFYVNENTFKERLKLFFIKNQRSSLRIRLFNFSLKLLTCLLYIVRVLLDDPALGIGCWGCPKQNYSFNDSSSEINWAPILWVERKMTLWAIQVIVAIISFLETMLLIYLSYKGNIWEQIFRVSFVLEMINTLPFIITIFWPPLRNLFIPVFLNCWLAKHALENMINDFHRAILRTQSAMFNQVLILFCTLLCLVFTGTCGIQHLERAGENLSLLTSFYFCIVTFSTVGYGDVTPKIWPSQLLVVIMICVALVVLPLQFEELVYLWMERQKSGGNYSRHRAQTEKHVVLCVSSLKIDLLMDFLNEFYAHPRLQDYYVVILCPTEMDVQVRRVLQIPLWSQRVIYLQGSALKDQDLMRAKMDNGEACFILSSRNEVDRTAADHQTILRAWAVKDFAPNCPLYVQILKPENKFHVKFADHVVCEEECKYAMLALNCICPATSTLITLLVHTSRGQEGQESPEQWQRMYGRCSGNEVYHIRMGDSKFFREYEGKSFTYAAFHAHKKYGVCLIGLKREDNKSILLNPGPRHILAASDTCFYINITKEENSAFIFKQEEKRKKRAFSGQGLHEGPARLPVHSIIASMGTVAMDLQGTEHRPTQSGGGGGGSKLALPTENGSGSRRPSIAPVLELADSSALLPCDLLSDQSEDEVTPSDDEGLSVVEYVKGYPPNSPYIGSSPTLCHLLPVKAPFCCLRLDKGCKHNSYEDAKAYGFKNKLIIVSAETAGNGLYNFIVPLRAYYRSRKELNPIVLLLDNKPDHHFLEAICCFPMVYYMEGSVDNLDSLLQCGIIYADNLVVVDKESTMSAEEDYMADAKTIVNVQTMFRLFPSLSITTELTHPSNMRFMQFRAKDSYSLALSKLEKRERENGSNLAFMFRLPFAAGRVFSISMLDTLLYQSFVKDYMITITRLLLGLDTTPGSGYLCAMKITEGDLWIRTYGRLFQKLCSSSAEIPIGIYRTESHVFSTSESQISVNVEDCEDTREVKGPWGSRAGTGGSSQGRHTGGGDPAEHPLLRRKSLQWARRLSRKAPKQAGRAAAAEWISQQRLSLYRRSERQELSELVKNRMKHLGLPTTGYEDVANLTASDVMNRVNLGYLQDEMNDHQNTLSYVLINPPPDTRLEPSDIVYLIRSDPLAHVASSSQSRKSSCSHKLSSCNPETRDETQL
# T1: miR-21 precursor (Homo sapiens); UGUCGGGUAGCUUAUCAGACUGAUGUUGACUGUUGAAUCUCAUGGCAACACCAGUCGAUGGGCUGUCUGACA
# Chain of UniProt P12081 (whole entry, unmodified, looked up): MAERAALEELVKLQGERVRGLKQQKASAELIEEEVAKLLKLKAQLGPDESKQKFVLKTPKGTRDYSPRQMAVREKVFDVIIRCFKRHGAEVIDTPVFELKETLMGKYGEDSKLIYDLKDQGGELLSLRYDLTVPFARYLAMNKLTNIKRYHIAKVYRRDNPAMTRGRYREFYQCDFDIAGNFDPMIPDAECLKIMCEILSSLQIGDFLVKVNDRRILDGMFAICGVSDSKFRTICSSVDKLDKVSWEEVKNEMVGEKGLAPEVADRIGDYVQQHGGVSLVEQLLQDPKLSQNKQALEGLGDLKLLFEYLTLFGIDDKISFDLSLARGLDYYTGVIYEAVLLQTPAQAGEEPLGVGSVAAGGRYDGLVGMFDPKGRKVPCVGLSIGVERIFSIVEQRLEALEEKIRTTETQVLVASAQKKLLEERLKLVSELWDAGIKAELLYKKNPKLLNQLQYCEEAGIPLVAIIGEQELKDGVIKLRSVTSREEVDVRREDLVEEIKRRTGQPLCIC
# Chain of UniProt Q9NZ08 (whole entry, unmodified, looked up): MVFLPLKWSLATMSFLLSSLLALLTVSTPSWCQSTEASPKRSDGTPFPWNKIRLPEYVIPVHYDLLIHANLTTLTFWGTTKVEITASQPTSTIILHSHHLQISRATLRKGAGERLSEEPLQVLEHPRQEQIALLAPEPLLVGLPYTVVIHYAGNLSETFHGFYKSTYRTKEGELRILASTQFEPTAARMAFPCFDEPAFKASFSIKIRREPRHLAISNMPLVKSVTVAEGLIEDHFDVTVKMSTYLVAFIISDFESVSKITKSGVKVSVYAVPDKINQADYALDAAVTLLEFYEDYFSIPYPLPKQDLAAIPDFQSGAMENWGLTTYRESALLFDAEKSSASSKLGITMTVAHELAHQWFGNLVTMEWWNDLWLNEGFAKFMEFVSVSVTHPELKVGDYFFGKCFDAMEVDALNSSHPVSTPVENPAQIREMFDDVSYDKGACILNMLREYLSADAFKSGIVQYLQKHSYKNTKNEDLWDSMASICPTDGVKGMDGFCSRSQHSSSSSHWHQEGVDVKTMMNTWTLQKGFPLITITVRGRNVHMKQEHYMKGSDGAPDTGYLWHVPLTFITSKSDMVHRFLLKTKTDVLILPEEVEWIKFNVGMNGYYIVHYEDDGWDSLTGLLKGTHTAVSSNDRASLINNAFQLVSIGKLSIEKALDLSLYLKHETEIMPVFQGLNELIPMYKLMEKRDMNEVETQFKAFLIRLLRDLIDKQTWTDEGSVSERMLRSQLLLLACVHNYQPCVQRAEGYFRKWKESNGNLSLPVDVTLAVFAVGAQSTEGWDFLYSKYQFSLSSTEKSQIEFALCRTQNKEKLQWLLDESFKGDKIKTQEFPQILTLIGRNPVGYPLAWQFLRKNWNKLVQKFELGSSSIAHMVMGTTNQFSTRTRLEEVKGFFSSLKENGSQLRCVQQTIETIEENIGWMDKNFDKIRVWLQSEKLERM
# Chain of UniProt P04062 (whole entry, unmodified, looked up): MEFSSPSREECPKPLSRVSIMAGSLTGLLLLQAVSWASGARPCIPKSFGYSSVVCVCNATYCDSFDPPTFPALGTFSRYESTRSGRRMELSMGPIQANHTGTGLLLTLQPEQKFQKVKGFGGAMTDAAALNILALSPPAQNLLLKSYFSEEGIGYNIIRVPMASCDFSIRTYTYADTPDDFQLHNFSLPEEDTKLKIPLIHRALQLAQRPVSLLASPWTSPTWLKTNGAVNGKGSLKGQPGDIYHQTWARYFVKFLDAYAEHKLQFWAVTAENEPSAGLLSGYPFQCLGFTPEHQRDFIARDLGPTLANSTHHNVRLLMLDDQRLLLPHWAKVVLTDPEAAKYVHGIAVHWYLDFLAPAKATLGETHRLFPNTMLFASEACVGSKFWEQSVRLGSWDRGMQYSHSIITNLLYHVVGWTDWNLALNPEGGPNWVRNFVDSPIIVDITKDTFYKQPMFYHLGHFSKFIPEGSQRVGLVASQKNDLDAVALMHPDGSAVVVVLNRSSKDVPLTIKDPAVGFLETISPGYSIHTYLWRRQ
# Chain of UniProt Q3ZCJ2 (whole entry, looked up): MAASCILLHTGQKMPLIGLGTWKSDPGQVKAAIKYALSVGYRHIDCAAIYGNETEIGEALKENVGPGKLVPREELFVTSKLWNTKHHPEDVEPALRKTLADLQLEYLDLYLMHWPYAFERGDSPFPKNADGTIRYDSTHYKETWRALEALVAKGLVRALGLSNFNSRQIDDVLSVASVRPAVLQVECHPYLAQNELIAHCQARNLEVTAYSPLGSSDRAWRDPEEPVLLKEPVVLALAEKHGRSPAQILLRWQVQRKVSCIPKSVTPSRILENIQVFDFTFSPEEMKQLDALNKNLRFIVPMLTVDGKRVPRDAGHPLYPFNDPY
Substance,target,test,test system,setting,scale,quantity,result
PEFGG,Kelch domain-containing protein 2,native mass spectrometry,"peptide, 200 mM ammonium acetate","20 µM Kelch domain-containing protein 2, pH 7",baseline: total Kelch domain-containing protein 2 signal,fraction of protein bound,0%
CC(C)C[C@H](NC(=O)[C@@H](NC(=O)[C@@H](N)[C@@H](C)O)C(C)C)C(=O)N1CCC[C@H]1C(=O)N1CCC[C@H]1C(=O)N1CCC[C@H]1C(=O)N1CCC[C@H]1C(=O)N[C@@H](Cc1ccc(O)cc1)C(=O)N[C@@H](C)C(=O)N[C@@H](Cc1c[nH]cn1)C(=O)N[C@@H](CCCNC(=N)N)C(=O)N[C@@H](CC(N)=O)C(=O)O,YAP1 WW2 domain,"binding, ITC",,"pH 7.0, 25 °C, WW2 domain",,TΔS,-3.12 ± 0.01 kcal/mol
O=C(O)c1cc(/N=N/c2ccc(S(=O)(=O)Nc3ccccn3)cc2)ccc1O,"Broad substrate specificity ATP-binding cassette transporter ABCG2 (Abcg2, Rattus norvegicus, UniProt Q80W57)",,"male Sprague-Dawley rat, plasma","oral, 2 mg/kg",,Cmax,80.1 ng/mL
Brc1ccccc1SSc1ccccc1Br,tubulin,"colchicine binding, [3H]colchicine binding",,"5 µM, 10 min, 37 °C, together with: [3H]colchicine 5.0 µM",,inhibition,27 ± 3%
Nc1ncnc2c1ncn2[C@@H]1O[C@H](COP(=O)(O)OP(=O)(O)O)[C@@H](O)[C@H]1O,"Sodium/potassium-transporting ATPase subunit alpha-1 (ATP1A1, Sus scrofa, UniProt P05024)","binding, radioligand equilibrium binding",membranes,"pH 7.7, 0 °C, together with: NO3- 109 mM",,Kd,3.23 ± 0.05 µM
O=c1c(-c2ccccc2)c1-c1ccccc1,cysteine peptide Ac-RFAACAA-COOH,DPRA RapidFire-MS/MS,,"24 h, pH 7.5, together with: 5.0 µM cysteine peptide",,maximal peptide depletion,-43.8%
GSRPQRLLWQTAVRHITEQRFIHGH,"Calmodulin-1 (Calm1, Rattus norvegicus, UniProt P0DP29, D130A/D94A)","Ca2+ dissociation, stopped-flow quin-2 fluorescence",peptide,"2 µM, pH 7.4, 22 °C, together with: Ca2+-calmodulin complex",,koff1,> 500 s⁻¹
COc1ccc(/C=C\c2cc(OC)c(OC)c(OC)c2)cc1O,tubulin,"colchicine binding, [3H]colchicine binding",,"50 µM, 10 min, 37 °C, together with: [3H]colchicine 5.0 µM",,inhibition,100 ± 0.04%
Nc1ncnc2c1ncn2[C@@H]1O[C@H](COP(=O)(O)OP(=O)(O)OP(=O)(O)O)[C@@H](O)[C@H]1O,"Histidine--tRNA ligase, cytoplasmic (HARS1, Homo sapiens, UniProt P12081, Y330C)","thermal stability, DSF",,,,ΔTm,2.13 °C
Nc1ncnc2c1ncn2[C@@H]1O[C@H](COP(=O)(O)OP(=O)(O)OP(=O)(O)O)[C@@H](O)[C@H]1O,"Sodium/potassium-transporting ATPase subunit alpha-1 (ATP1A1, Canis lupus familiaris, UniProt P50997)","binding, ligand dissociation kinetics",dog enzyme,"Na+ 200 mM, 4 °C, Arg+ replacement, total monovalent cation 500 mM, nitrate, preparation B",,dissociation rate constant,1.9 ± 0.21 s⁻¹
CN(CCOc1ccc(CC2SC(=O)NC2=O)cc1)c1ccccn1 (stereo not shown),"Peroxisome proliferator-activated receptor gamma (Rattus norvegicus, UniProt O88275)","reporter gene, agonist",CHO-K1,1 µM,,induction,> 7
Cc1ccc2oc(=O)ccc2c1,cysteine peptide Ac-RFAACAA-COOH,DPRA RapidFire-MS/MS,,"24 h, pH 7.5, together with: 5.0 µM cysteine peptide",,peptide depletion,inactive
O=C1NC(=O)C(c2ccccc2)(c2ccccc2)N1,"Monocarboxylate transporter 9 (Slc16a9, Rattus norvegicus, UniProt M0RCI4)","substrate, Xenopus oocytes",,"9.09 µM, 20 °C",baseline: water-injected oocytes,uptake,no effect
CCCC[C@H](NC(=O)[C@H](C)NC(=O)[C@H](Cc1ccc(O)cc1)NC(=O)[C@H](CO)NC(C)=O)C(=O)N[C@@H](CCC(=O)O)C(=O)N[C@@H](Cc1c[nH]cn1)C(=O)N[C@H](Cc1ccccc1)C(=O)N[C@@H](CCCNC(=N)N)C(=O)N[C@@H](Cc1c[nH]c2ccccc12)C(=O)NCC(=O)N[C@@H](CCCCN)C(=O)N1CCC[C@H]1C(=O)N[C@H](C(N)=O)C(C)C,"Melanocortin receptor 5 (Mus musculus, UniProt P41149)",,,,,EC50,0.00014 ± 9e-06 µM
OC[C@@H]1[C@@H](O)[C@H](O)[C@@H](O)[C@@H]2O[C@H]12,"Lysosomal acid glucosylceramidase (GBA1, Homo sapiens, UniProt P04062, R534H)","enzyme activity, inhibitor",,pH 5.2,,kinact,0.0117 s⁻¹
C[C@]12CC[C@H](O)CC1=CC[C@@H]1[C@@H]2CC[C@]2(C)C(c3cccnc3)=CC[C@@H]12,"Steroid 17-alpha-hydroxylase/17,20 lyase (CYP17A1, Homo sapiens, UniProt P05093)","dissociation, jump-dilution",,together with: allopregnanolone 20 µM,,koff,0.000155 s⁻¹
KKKKETDV-OH (C-acid),"Peripheral plasma membrane protein CASK, PDZ domain (CASK, Homo sapiens, UniProt O14936)",PDZ binding to syndecan-2 peptide,,"50 µM, 45 min, 4 °C",,binding competition,no effect
CSc1ccc(/C=C2/C(C)=C(CC(=O)O)c3cc(F)ccc32)cc1,"cGMP-inhibited 3',5'-cyclic phosphodiesterase 3A (PDE3A, Homo sapiens, UniProt Q14432)","cAMP hydrolysis, inhibitor, IMAP fluorescence polarization",,up to 200 µM,,IC50,inactive
IINFEKE,"Endoplasmic reticulum aminopeptidase 1 (ERAP1, Homo sapiens, UniProt Q9NZ08, L733R)","L-AMC hydrolysis, activator",peptide,"100 µM, 5 min, pH 8.0, 27 °C, mutant L733R, together with: L-AMC varied from 0 µM",,Vmax,56 ± 1 nmol/min/µg
OC[C@H]1OC(O)[C@H](O)[C@@H](O)[C@@H]1O (stereo partly shown),"Beta-glucosidase (Oenococcus oeni, UniProt Q04DP9)",,,"0.2 mol/L, pH 5.5, 37 °C",baseline: initial activity,remaining activity,60%
CC(C)C[C@H](NC(=O)[C@H](C)NC(=O)[C@@H](N)[C@@H](C)O)C(=O)N1CCC[C@H]1C(=O)N1CCC[C@H]1C(=O)N1CCC[C@H]1C(=O)N1CCC[C@H]1C(=O)N[C@@H](Cc1ccc(O)cc1)C(=O)N[C@@H](CCCNC(=N)N)C(=O)N[C@@H](Cc1c[nH]cn1)C(=O)N[C@@H](CCCNC(=N)N)C(=O)N[C@@H](CC(N)=O)C(=O)O,YAP1 WW2 domain,"binding, ITC",,"pH 7.0, 25 °C, WW2 domain",,ΔG,-5.76 ± 0.16 kcal/mol
C/C=C1\CN2CCC34CC5C6CC7c8c(c9ccccc9n8C)CC(C6COC5(C)OC35C2CC1C(C(=O)OC)N5c1ccccc14)N7C (stereo not shown),"Transcription factor p65 (RELA, Homo sapiens, UniProt Q04206)","DNA binding, inhibitor, ELISA",HeLa nuclear extract,,,ED50,> 20 µM
CC[C@@]1(O)C[C@H](O[C@H]2C[C@H](N(C)C)[C@H](O)[C@H](C)O2)c2c(cc3c(c2O)C(=O)c2c(O)cccc2C3=O)[C@H]1C(=O)OC,"T1, miR-21 precursor (Homo sapiens)",DSF,,"3 µM, NaCl 0.25 mM",,melting temperature shift,-17.1 °C
IKPAKRMKFKTVCYLLVQLMHCRKMFKA,"Calmodulin-1 (Calm1, Rattus norvegicus, UniProt P0DP29)","N-lobe Ca2+ dissociation, stopped-flow with quin-2",peptide,22 °C,,Ca2+ dissociation rate constant,> 500 s⁻¹
[Na+],"melB (Salmonella typhimurium, UniProt P30878)","substrate, isothermal titration calorimetry",,"concentration not given, 15-30 °C, ΔH versus temperature slope, together with: 50 mM melibiose",,heat capacity change,-760 J/mol/K
O=S(=O)(c1ccc(C(F)(F)F)cc1)N1CC(c2nc(-c3ccsc3)no2)C1,KCNT1,"Tl+ flux, inhibitor",HEK293 expressing KCNT1,30 µM,,activity class,inactive
VIVFGG,Kelch domain-containing protein 2,native mass spectrometry,"peptide, 200 mM ammonium acetate","20 µM Kelch domain-containing protein 2, pH 7",baseline: total Kelch domain-containing protein 2 signal,fraction of protein bound,5.4%
IINFEKL,"Endoplasmic reticulum aminopeptidase 1 (ERAP1, Homo sapiens, UniProt Q9NZ08, I681R)","L-AMC hydrolysis, activator",peptide,"100 µM, 5 min, pH 8.0, 27 °C, mutant I681R, together with: L-AMC varied from 0 µM",,Vmax,359 ± 5 nmol/min/µg
Cc1ccc2cccc(S(=O)(=O)N3CC(c4nc(-c5ccc(F)cc5)no4)C3)c2n1,KCNT1,"ion current, activator, automated patch clamp",CHO,30 µM,baseline: bepridil 60 µM,efficacy,100%
COc1cccc(-n2c(-c3ccc(Br)cc3)cs/c2=N/N=C(/C)c2ccc3c(c2)NC(=O)CO3)c1,"Aldo-keto reductase family 1 member A1 (Bos taurus, UniProt Q3ZCJ2)","enzyme activity, inhibitor, absorbance",,1 mM,,inhibition,31.9%
CC(=O)C(C)=NO,integrin alphaM beta2 (human),"ligand binding, inhibitor, flow cytometry",human neutrophils,"concentration not given, 1 h, 37 °C, integrin clustering inhibitor, together with: Alexa 488-labelled fibrinogen","baseline: no inhibitor, lower means less binding",bound fibrinogen fluorescence,509 ± 72 MFI
CC(C)C[C@H](NC(=O)[C@@H](NC(=O)[C@@H](N)[C@@H](C)O)C(C)C)C(=O)N1CCC[C@H]1C(=O)N1CCC[C@H]1C(=O)N1CCC[C@H]1C(=O)N1CCC[C@H]1C(=O)N[C@@H](Cc1ccc(O)cc1)C(=O)N[C@@H](CCCNC(=N)N)C(=O)N[C@@H](C)C(=O)N[C@@H](CCCNC(=N)N)C(=O)N[C@@H](CC(N)=O)C(=O)O,YAP1 WW2 domain,"binding, ITC",,"pH 7.0, 25 °C, WW2 domain",,ΔH,-14.6 ± 0.35 kcal/mol
COc1ccc(C(=O)NCCNc2nc3cc(C)cc(C)c3cc2C#N)cc1,"Cystic fibrosis transmembrane conductance regulator (CFTR, Homo sapiens, UniProt P13569, del508-508)","CFTR correction, corrector, iodide influx rate",FRT expressing YFP-H148Q/I152L,"up to 25 µM, 16-20 h, 37 °C, together with: forskolin 20 µM, genistein 50 µM",,Vmax,172 µM/s
CC(C)C[C@H](NC(=O)[C@@H](NC(=O)[C@@H](N)[C@@H](C)O)C(C)C)C(=O)N[C@@H](C)C(=O)N1CCC[C@H]1C(=O)N1CCC[C@H]1C(=O)N1CCC[C@H]1C(=O)N[C@@H](Cc1ccc(O)cc1)C(=O)N[C@@H](CCCNC(=N)N)C(=O)N[C@@H](Cc1c[nH]cn1)C(=O)N[C@@H](CCCNC(=N)N)C(=O)N[C@@H](CC(N)=O)C(=O)O,"Transcriptional coactivator YAP1, WW1 domain (YAP1, Homo sapiens, UniProt P46937)","binding, ITC",,"pH 7.0, 25 °C, WW1 domain",,TΔS,-10.2 ± 0.83 kcal/mol
N[C@@H](Cc1cnc[nH]1)C(=O)O,"Histidine--tRNA ligase, cytoplasmic (HARS1, Homo sapiens, UniProt P12081, Y454S)","thermal stability, DSF",,,,ΔTm,8.1 °C
CCOc1ccccc1S(=O)(=O)c1ccc(-c2nc(-c3ccc(F)cc3)no2)cc1,KCNT1,"Tl+ flux, inhibitor",HEK293 expressing KCNT1,30 µM,,activity class,inactive
COCC(=O)O[C@]1(CCN(C)CCCc2nc3ccccc3[nH]2)CCc2cc(F)ccc2[C@@H]1C(C)C,"Potassium channel subfamily K member 9 (KCNK9, Homo sapiens, UniProt Q9NPC2)","ion channel activity, thallium flux",HEK293 (tetracycline-inducible K2P9.1),concentration not given,,minimum activity,72%
